Measurements from different studies.
Lines come from different studies, so protocols differ. ± gives the spread as reported. In brackets after ≈: the same amount, converted by molar mass.

For `O=C(Nc1ccc(OC(F)(F)Cl)cc1)c1cnc(N2CC[C@@H](O)C2)c(-c2ccn[nH]2)c1`, “grade ≥2 event rate” read 0.3% (per laboratory record, measured: bilirubin increase; human patients; oral, dose not given).
For `CCCCC/C=C\C/C=C\CCCCCCCC(=O)O.Cc1cc(/C=C/C#N)cc(C)c1Nc1ccnc(Nc2ccc(C#N)cc2)n1`, the kinetic solubility was about 150 mg/mL (Labrasol ALF).
The AUClast of `CC(C)[C@@H](CN1CC[C@@](C)(c2cccc(O)c2)[C@@H](C)C1)NC(=O)[C@H]1Cc2ccc(O)cc2CN1` is reported as 24200 ng·h/g (rat, brain; intraperitoneal, 10 mg/kg).
Under “participants with TEAE”, `CC(C)c1nc(N(C)S(C)(=O)=O)nc(-c2ccc(F)cc2)c1/C=C/[C@@H](O)C[C@@H](O)CC(=O)O` is recorded as 6.9% (measured: Diarrhea; human; oral, 10 mg).
For `COc1cc(C(=O)NC2CCN(C)CC2)c(F)cc1Nc1ncc(C(F)(F)F)c(Oc2cccc3c2C(=O)N(C)C3)n1`, “dose-normalised Cmax at steady state” read 16.2 nmol/L per mg (human patients, plasma; oral, 25 mg once daily repeated, geometric mean).
Under “change in PR interval”, `CCCCOC(=O)N1CCN(C(=O)[C@H](CP(=O)(O)O)NC(=O)c2cc(N3CC[C@H](OC)C3)nc(-c3ccccc3)n2)CC1` is recorded as 1 ± 13.2 ms (human; subcutaneous, 8 mg, 1 h post-dose; baseline: baseline).
Under “mean body weight change”, `Cc1nc2cccc(OCC(C)(C)C(=O)NC(C)C)c2c(N)c1C(=O)O` is recorded as 1.5 ± 1 g (Swiss albino CD-1 mouse; oral, 1000 mg/kg, 48 h).
For `CCC(C)n1ncn(-c2ccc(N3CCN(c4ccc(OCC5COC(Cn6cncn6)(c6ccc(Cl)cc6Cl)O5)cc4)CC3)cc2)c1=O` (stereo not drawn), the blood-to-plasma ratio was 0.64 (fresh human whole blood; 1 µM, pH 7.4).
`Clc1cccc(Nc2ncnc3ccc(-c4cccc(N5CCOCC5)c4)cc23)c1` has a thermodynamic solubility of 12 µM (≈ 5 µg/mL) (0.1 M phosphate buffer; pH 7.4, 25 °C).
Under “median ACTH level”, `N#Cc1ccc2c(c1)[C@H]1CCCN(C(=O)c3ccc4[nH]cnc4c3)[C@H]1C2` is recorded as 6.6 pmol/L (human; 160 mg, end of trial).
`Cc1cccc(CNC(=O)c2cn(CCNC(=O)c3ccccc3S)c3cc4c(cc3c2=O)OC(F)(F)O4)n1` has a Cmax of 9.41 ± 1.96 ng/mL (Sprague-Dawley rat, male, plasma; intramuscular, 3 mg/kg of parent drug).
`O=C(N[C@H](Cc1c[nH]c2ccccc12)C(=O)Nc1ccncc1)c1ccc(N2CCN(c3ccc(F)c(F)c3)CC2)cc1F` gave a concentration of 520 nM (Swiss Webster mouse, female, heart; oral, 50 mg/kg, 2 h, 20% HPβCD vehicle).
The thermodynamic solubility of `CC(C)(Oc1ccc(CCNC(=O)c2ccc(Cl)cc2)cc1)C(=O)O` is reported as 14.6 ± 1.81 mg/g (shake-flask; Cremophor ELP; 37 °C, water up to 0.5% w/w).
`CCCCC[C@H]1CC[C@H](c2ccc(OCC)c(F)c2F)CC1` — result for “median placental accumulation”: 14.5 ng/g (rat, placenta; 1000 ng/mL in perfusate, middle dose, mixture of 21 LCMs).
For `NC(=O)N1c2ccccc2C=Cc2ccccc21`, “adverse events incidence” read 7% (measured: investigations (SOC); human male; oral, dose not given, CTCAE on-treatment AEs).
Under “treatment-emergent adverse events”, `O=C(Nc1nc2cccc(-c3ccc(CN4CCS(=O)(=O)CC4)cc3)n2n1)C1CC1` is recorded as 0% (measured: musculoskeletal disorders; human rheumatoid arthritis patients; oral, 150 mg once daily, 4 weeks, regardless of relatedness).
Under “trough concentration (C24)”, `C[C@@H]1CCO[C@H]2Cn3cc(C(=O)NCc4ccc(F)cc4F)c(=O)c(O)c3C(=O)N12` is recorded as 729 ng/mL (human paediatric patients, weight sample D to under sample E kg, plasma; oral, 35 mg film-coated tablet, 24 h, steady state, geometric mean, population PK post-hoc, N 5).
`CC1(CNC(=O)[C@H](CN)NC(=O)c2ccc(-c3ccc(Br)cc3)cc2)NC(=O)NC1=O` (stereo partly drawn) has a thermodynamic solubility of 329 µM (≈ 161 µg/mL) (aqueous buffer; pH 7.4).
For `CN(CCCN1CCN(C(=O)CN2CCN(CC(=O)[O-])CCN(CC(=O)[O-])CCN(CC(=O)[O-])CC2)CC1)c1ccc2nccc(C(=O)NCC(=O)N3CC(F)(F)C[C@H]3C#N)c2c1.[68Ga+3]`, the uptake was 0.1 ± 0.1 %IA/g (mice, HT-1080.hFAP and HT-1080 wild-type xenografts, muscle; iv, 500 pmol, 4 h post injection).
With `NC(=O)N1c2ccccc2CC(O)c2ccccc21` (stereo not drawn) the clearance was 3.06 L/h (population PK modelling; human patients, plasma; joint parent-metabolite model).
For `c1ccc(-c2nc(N3CCc4cccnc4C3)c3ccccc3n2)nc1`, the kinetic solubility was 0.077 mg/mL (≈ 227 µM) (Japanese Pharmacopoeia disintegration test solution 2; pH 6.8).
